Assay results gathered from unrelated publications.
Numbered parts are unrelated; each lists some results of a single study. Several values in a cell are separate wells, animals, samples, runs or records.
Chain of UniProt Q9UM73 (whole entry, looked up): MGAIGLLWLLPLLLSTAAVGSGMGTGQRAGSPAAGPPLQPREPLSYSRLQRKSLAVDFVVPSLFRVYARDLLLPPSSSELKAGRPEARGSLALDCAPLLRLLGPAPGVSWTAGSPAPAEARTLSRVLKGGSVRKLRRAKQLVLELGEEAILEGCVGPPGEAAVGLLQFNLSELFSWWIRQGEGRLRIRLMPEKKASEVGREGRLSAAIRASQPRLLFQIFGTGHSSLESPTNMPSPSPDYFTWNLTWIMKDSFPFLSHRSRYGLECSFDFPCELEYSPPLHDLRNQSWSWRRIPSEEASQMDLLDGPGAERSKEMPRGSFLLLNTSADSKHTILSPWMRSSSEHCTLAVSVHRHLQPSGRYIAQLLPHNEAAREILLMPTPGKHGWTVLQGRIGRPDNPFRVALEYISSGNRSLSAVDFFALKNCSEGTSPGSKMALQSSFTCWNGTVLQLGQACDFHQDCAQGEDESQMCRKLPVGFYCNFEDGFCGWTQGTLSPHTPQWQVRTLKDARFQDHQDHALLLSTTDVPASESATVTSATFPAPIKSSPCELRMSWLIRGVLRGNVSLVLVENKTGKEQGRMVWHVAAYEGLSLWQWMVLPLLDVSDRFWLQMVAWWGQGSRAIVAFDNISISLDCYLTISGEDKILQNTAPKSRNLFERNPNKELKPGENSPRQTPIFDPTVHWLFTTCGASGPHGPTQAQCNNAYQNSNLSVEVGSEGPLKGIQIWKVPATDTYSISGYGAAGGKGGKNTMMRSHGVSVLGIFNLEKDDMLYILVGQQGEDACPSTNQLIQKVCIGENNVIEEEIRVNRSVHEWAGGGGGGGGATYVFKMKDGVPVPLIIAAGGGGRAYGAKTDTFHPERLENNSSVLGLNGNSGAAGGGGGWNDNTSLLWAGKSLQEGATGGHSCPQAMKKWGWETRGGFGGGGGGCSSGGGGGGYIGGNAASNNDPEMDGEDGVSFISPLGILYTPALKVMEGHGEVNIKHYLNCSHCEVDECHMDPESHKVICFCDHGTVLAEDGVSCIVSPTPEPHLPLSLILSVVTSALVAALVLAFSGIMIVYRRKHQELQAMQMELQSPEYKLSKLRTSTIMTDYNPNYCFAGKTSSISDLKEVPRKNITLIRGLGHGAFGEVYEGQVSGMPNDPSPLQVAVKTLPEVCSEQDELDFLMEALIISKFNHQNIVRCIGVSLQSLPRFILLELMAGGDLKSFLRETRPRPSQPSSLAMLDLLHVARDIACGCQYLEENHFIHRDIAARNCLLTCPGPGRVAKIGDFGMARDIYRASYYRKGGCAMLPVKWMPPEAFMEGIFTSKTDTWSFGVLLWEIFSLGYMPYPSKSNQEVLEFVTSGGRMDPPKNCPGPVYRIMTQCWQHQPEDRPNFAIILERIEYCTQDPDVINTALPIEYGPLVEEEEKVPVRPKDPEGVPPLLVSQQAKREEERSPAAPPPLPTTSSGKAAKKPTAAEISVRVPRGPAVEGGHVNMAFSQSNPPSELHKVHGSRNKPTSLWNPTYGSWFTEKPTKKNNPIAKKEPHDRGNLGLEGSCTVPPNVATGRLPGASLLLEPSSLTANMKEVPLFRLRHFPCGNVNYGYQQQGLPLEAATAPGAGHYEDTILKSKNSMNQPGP
Chain of UniProt Q00535 (whole entry, looked up): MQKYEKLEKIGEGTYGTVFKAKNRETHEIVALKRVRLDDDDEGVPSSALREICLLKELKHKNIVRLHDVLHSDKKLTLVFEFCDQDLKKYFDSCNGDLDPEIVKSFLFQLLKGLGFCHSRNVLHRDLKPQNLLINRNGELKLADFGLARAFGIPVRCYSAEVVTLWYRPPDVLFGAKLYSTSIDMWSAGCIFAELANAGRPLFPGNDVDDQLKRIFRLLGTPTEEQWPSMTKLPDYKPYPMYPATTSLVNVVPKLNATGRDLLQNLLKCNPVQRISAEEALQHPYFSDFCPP
Chain of UniProt P00519 (whole entry, unmodified, looked up): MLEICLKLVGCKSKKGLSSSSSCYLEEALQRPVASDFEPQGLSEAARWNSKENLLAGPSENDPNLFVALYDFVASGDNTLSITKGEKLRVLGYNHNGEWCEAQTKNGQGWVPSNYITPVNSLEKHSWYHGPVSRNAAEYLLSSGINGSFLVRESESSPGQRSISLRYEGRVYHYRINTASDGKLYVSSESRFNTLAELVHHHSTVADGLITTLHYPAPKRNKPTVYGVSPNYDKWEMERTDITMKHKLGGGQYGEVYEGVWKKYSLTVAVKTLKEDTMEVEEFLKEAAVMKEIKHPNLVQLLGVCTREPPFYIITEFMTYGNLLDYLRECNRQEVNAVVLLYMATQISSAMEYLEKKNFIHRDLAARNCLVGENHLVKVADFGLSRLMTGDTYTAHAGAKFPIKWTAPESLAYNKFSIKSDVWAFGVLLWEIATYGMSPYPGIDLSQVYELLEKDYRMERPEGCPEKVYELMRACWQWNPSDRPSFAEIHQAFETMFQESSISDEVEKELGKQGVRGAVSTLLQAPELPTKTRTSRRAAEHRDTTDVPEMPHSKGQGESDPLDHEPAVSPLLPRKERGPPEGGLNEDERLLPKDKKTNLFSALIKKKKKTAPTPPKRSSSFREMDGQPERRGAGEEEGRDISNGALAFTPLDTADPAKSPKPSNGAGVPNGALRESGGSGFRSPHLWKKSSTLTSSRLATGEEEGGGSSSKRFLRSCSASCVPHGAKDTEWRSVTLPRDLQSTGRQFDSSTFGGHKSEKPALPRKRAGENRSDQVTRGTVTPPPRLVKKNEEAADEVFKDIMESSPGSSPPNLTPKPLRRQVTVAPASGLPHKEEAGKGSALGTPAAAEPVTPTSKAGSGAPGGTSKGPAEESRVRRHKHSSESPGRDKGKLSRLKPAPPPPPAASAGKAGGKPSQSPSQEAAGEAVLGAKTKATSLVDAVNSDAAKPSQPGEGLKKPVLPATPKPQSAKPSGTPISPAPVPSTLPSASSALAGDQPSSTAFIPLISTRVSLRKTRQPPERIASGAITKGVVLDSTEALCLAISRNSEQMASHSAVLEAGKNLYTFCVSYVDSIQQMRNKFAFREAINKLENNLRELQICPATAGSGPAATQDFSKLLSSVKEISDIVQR
Chain of UniProt Q9Y6E0 (whole entry, looked up): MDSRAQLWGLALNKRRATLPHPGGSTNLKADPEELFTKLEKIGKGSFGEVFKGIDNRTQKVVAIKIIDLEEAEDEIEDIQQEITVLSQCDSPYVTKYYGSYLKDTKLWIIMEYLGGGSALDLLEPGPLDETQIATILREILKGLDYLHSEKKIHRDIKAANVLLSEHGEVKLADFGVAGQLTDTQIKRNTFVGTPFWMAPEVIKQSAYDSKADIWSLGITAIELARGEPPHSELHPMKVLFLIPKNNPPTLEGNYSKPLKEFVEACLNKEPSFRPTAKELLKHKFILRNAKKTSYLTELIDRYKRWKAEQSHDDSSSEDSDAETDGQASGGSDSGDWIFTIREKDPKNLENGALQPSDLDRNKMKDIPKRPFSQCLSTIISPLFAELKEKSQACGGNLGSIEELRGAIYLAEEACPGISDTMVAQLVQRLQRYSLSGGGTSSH
Chain of UniProt P21127 (whole entry, looked up): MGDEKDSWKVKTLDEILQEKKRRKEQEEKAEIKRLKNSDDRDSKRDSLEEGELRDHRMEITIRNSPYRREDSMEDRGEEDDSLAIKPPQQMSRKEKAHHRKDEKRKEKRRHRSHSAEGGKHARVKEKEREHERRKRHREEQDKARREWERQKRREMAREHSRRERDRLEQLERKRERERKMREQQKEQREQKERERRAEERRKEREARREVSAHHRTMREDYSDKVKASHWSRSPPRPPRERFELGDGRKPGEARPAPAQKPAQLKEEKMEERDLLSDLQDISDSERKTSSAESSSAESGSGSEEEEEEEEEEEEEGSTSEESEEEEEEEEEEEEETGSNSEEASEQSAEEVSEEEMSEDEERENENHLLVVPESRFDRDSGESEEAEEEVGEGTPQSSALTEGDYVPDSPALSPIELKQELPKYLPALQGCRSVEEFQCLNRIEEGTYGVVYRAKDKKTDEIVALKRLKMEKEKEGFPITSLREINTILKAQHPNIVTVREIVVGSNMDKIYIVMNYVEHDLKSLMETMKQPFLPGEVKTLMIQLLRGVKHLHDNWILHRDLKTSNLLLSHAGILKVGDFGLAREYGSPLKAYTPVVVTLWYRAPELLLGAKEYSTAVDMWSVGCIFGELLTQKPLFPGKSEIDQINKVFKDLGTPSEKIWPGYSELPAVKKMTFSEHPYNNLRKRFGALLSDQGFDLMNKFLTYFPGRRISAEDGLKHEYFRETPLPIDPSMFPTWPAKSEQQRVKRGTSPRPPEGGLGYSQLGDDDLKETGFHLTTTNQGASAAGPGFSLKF

Study 1
SMILES: C[C@@]1(Cc2ccc(C#N)cc2)C(=O)N(c2cc(Cl)cc(Cl)c2)c2ncc(C(=O)NC3(c4nc(C5CCC5)no4)CC3)n21
Tested at: 1 µM
target	test	remaining binding [%]
cAMP-dependent protein kinase catalytic subunit alpha (PRKACA, Homo sapiens, UniProt P17612)	cell-free assay, competition with immobilised ligand	100
Mitogen-activated protein kinase kinase kinase kinase 3 (MAP4K3, Homo sapiens, UniProt Q8IVH8)	cell-free assay, competition with immobilised ligand	78
Macrophage colony-stimulating factor 1 receptor (CSF1R, Homo sapiens, UniProt P07333)	cell-free assay, competition with immobilised ligand	100
Focal adhesion kinase 1 (PTK2, Homo sapiens, UniProt Q05397)	cell-free assay, competition with immobilised ligand	100
Activin receptor type-2B (ACVR2B, Homo sapiens, UniProt Q13705)	cell-free assay, competition with immobilised ligand	100
Serine/threonine-protein kinase 24 (STK24, Homo sapiens, UniProt Q9Y6E0)	cell-free assay, competition with immobilised ligand	93
Cyclin-dependent kinase 11B (CDK11B, Homo sapiens, UniProt P21127)	cell-free assay, competition with immobilised ligand	100
Mitogen-activated protein kinase 4 (MAPK4, Homo sapiens, UniProt P31152)	cell-free assay, competition with immobilised ligand	100
Cyclin-dependent kinase 5 (CDK5, Homo sapiens, UniProt Q00535)	cell-free assay, competition with immobilised ligand	100
Receptor-type tyrosine-protein kinase FLT3 (FLT3, Homo sapiens, UniProt P36888, N841I)	cell-free assay, competition with immobilised ligand	89
Phosphatidylinositol 4,5-bisphosphate 3-kinase catalytic subunit alpha isoform (PIK3CA, Homo sapiens, UniProt P42336, E545K)	cell-free assay, competition with immobilised ligand	94
Leucine-rich repeat serine/threonine-protein kinase 2 (LRRK2, Homo sapiens, UniProt Q5S007, G2019S)	cell-free assay, competition with immobilised ligand	100
Casein kinase II subunit alpha (CSNK2A1, Homo sapiens, UniProt P68400)	cell-free assay, competition with immobilised ligand	91
Epidermal growth factor receptor (EGFR, Homo sapiens, UniProt P00533, G719C)	cell-free assay, competition with immobilised ligand	100
Tyrosine-protein kinase ABL1, phosphorylated (ABL1, Homo sapiens, UniProt P00519, F317I)	binding	96
Phosphatidylinositol 4-kinase beta (PI4KB, Homo sapiens, UniProt Q9UBF8)	cell-free assay, competition with immobilised ligand	100
ALK tyrosine kinase receptor (ALK, Homo sapiens, UniProt Q9UM73)	cell-free assay, competition with immobilised ligand	100
Protein-tyrosine kinase 6 (PTK6, Homo sapiens, UniProt Q13882)	cell-free assay, competition with immobilised ligand	100
Serine/threonine-protein kinase LATS1 (LATS1, Homo sapiens, UniProt O95835)	cell-free assay, competition with immobilised ligand	96
cAMP-dependent protein kinase catalytic subunit beta (PRKACB, Homo sapiens, UniProt P22694)	cell-free assay, competition with immobilised ligand	100
Glycogen synthase kinase-3 alpha (GSK3A, Homo sapiens, UniProt P49840)	cell-free assay, competition with immobilised ligand	100

Study 2
Cell line: mouse MPNST tumor cells
Method: high-content immunofluorescence imaging
Measured: nuclear SOX9
Tested at: 10 µM
Time: 12 h
Notes: mean of 2 replicates
Baseline: DMSO control
Direction: higher = more nuclear SOX9
Structure (SMILES)	nuclear SOX9 intensity
Cc1cc(=O)n(C)c2cc(N3C(=O)CC[C@H](NS(=O)(=O)CC(C)C)[C@H]3c3ccc(Cl)cc3)ccc12	94.7 % of DMSO and 121 % of DMSO
CCC1(C)CC(=O)NC1=O (stereo not shown)	101 % of DMSO
CC[N+](CC)(CC(=O)Nc1c(C)cccc1C)Cc1ccccc1	92.8 % of DMSO
Cc1nc2c(O)cccc2c(=O)[nH]1	91.9 % of DMSO
Cc1c(Nc2ncccc2C(=O)O)cccc1C(F)(F)F	101 % of DMSO
NS(=O)(=O)c1ccc(NC(=O)Nc2ccc(F)cc2)cc1	105 % of DMSO
Cc1cc(C)nc(SCC(=O)Nc2ncc(Cc3cccc4ccccc34)s2)n1	118 % of DMSO
CC(C)(C)c1ccc(C=CC(=O)Nc2ccc3c(c2)OCCO3)cc1	124 % of DMSO
COc1cc2c(cc1OC)CN(CCc1ccc(NC(=O)c3cc(OC)c(OC)cc3NC(=O)c3cnc4ccccc4c3)cc1)CC2	171 % of DMSO
CCOC(=O)Nc1ccc(NCc2ccc(F)cc2)nc1N	115 % of DMSO
CCOC(=O)Nc1cc(-c2ccc(C)c(NS(C)(=O)=O)c2)nn2c(C)nnc12	248 % of DMSO
CC1(C)N=C(N)N=C(N)N1c1ccc(Cl)cc1	120 % of DMSO
C#C[C@]1(OC(C)=O)CC[C@H]2[C@@H]3CCC4=C[C@@H](OC(C)=O)CC[C@@H]4[C@H]3CC[C@@]21C	111 % of DMSO
CN(CCc1ccc(Cl)c(Cl)c1)CC(O)COc1ccc(NS(C)(=O)=O)cc1 (stereo not shown)	101 % of DMSO
Nc1nc2c(c(N3CCNCC3)n1)CCC1=C2C2CCCCC2O1 (stereo not shown)	146 % of DMSO

Study 3
Cell line: A-375
Tested at: 100 µM
Time: 36 h
SMILES	viability [%]
CCOC(=O)C1=C[C@@H](OC(CC)CC)[C@H](NC(C)=O)[C@@H](N)C1	89.7
OCCN1C[C@H](O)[C@@H](O)[C@H](O)[C@H]1CO	124
O=C(O)c1cc(=O)[nH]c(=O)[nH]1	110
C=CC1=C(C(=O)O)N2C(=O)[C@@H](NC(=O)/C(=N\OCC(=O)O)c3csc(N)n3)[C@H]2SC1	103
CN1C(=O)OC(C)(C)C1=O	141
CCCCNc1ccc(C(=O)OCCN(C)C)cc1	94.3
CC(C)NCC(O)COc1cccc2[nH]c3ccccc3c12 (stereo not shown)	4.23
CNC(=O)c1c(C)oc2cc(Oc3ncnc4cc(OC)c(OC)cc34)ccc12	102
C[N+]1(C)[C@@H]2CC[C@H]1C[C@@H](OC(=O)C(O)c1ccccc1)C2 (stereo partly shown)	102
CN(C)CC(c1ccc(O)cc1)C1(O)CCCCC1 (stereo not shown)	98.7

Study 4
Target: Calcium/calmodulin-dependent protein kinase type II subunit alpha (CAMK2A, Homo sapiens, UniProt Q9UQM7)
Chain of UniProt Q9UQM7 (whole entry, looked up): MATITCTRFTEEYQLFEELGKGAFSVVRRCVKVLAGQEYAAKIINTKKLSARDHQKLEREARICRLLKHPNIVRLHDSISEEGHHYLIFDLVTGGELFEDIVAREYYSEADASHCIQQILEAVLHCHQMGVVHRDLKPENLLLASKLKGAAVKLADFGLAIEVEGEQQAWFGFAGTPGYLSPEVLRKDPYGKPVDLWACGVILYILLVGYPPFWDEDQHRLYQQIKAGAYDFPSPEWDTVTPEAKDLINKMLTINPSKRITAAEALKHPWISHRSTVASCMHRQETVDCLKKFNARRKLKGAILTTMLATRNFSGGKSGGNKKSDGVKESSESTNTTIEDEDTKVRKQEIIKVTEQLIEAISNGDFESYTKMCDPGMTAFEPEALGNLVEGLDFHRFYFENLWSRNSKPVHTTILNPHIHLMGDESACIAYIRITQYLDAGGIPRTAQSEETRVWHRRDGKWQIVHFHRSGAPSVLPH
Effect on: enzyme activity
Action: inhibitor
Tested at: 10 µM
SMILES	inhibition [%]
COc1ccc(-c2coc3cc(O[C@@H]4O[C@H](CO)[C@@H](O)[C@H](O)[C@H]4O)c(OC)c(O)c3c2=O)cc1O	-12
N[C@@H]1CN(c2c(F)cc3c(=O)c(C(=O)O)cn([C@@H]4C[C@@H]4F)c3c2Cl)CC12CC2	-4
Cc1ccc(C(=O)Nc2ccc(S(=O)(=O)O)c3cc(S(=O)(=O)O)cc(S(=O)(=O)O)c23)cc1NC(=O)c1cccc(NC(=O)Nc2cccc(C(=O)Nc3cc(C(=O)Nc4ccc(S(=O)(=O)O)c5cc(S(=O)(=O)O)cc(S(=O)(=O)O)c45)ccc3C)c2)c1	-18
C/C=C1\[C@H](O[C@@H]2O[C@H](CO)[C@@H](O)[C@H](O)[C@H]2O)OC=C(C(=O)OC)[C@H]1CC(=O)OC[C@H]1O[C@@H](OCCc2ccc(O)cc2)[C@H](O)[C@@H](O)[C@@H]1O	-23
C[C@H]1O[C@@H](O[C@H]2CC[C@@]3(C)[C@@H](CC[C@]4(C)[C@@H]3C=CC3=C5CC(C)(C)CC[C@]5(CO)[C@@H](O)C[C@]34C)[C@]2(C)CO)[C@H](O)[C@@H](O[C@@H]2O[C@H](CO)[C@@H](O)[C@H](O)[C@H]2O)[C@H]1O	-23
Cc1cccc(CC(=O)O)c1	-39
OCc1c[nH]c2ccccc12	-20
C[C@@H]1O[C@@H](OC[C@H]2O[C@@H](Oc3c(-c4ccc(O)cc4)oc4cc(O)cc(O)c4c3=O)[C@H](O[C@@H]3O[C@H](CO)[C@H](O)[C@H](O)[C@H]3O)[C@@H](O)[C@@H]2O)[C@H](O)[C@H](O)[C@H]1O	-33
COc1c(/C=C/C(=O)c2ccc(O)c(O)c2)ccc(O)c1O	5
CN1CCN2c3ccccc3Cc3ccccc3C2C1 (stereo not shown)	6
Cc1oncc1C(=O)Nc1ccc(C(F)(F)F)cc1	-3
Cc1ccc2[nH]c3ccccc3c2c1	-11
